Published values from different studies.
Each line is one published result; not all experiments were run side by side. ± gives the spread as reported.

SMILES = O=C(CN1C(C(=O)c2ccccc2)=C(O)c2ccccc2S1(=O)=O)Nc1ccccc1Br; test system = alloxan-induced diabetic mouse, serum; conditions = dose not given, day 21, 504 h, high dose; measurement = serum insulin; value = 38 ± 2 pmol/L
SMILES = COC(=O)C1OC(Oc2c(-c3ccccc3)oc3cc(O)c(O)c(O)c3c2=O)C(O)C(O)C1O (centres unmarked); test = ELISA, item: IL-10; test system = Balb/c mouse, serum; conditions = oral, 5 mg/kg, added: LPS; measurement = serum concentration; value = 64.6 pg/mL
SMILES = CCCCCCCCCCCCCCCC(=O)NCCCC[C@H](N)C(=O)N[C@@H](CC(=O)O)C(=O)N[C@H](C(=O)N[C@@H](Cc1c[nH]cn1)C(=O)N[C@@H](Cc1ccccc1)C(=O)N[C@@H](CCCNC(=N)N)C(=O)N[C@H](C(=O)N[C@@H](Cc1ccccc1)C(=O)N[C@@H](CCCNC(=N)N)C(=O)N[C@@H](CO)C(=O)N[C@@H](Cc1c[nH]cn1)C(=O)N[C@@H](CO)C(=O)N[C@@H](CC(=O)O)C(=O)N[C@@H](Cc1ccc(O)cc1)C(=O)N[C@@H](CCCNC(=N)N)C(=O)N[C@@H](CCCNC(=N)N)C(=O)N[C@H](C(=O)O)[C@@H](C)CC)[C@@H](C)O)[C@@H](C)O; test system = C57BL/6J mouse, MCD diet; conditions = intraperitoneal, 0.6 nmol/g, 3 weeks, 3 times weekly; measurement = serum AST; value = 191 ± 22.5 IU/L
SMILES = CC(=O)N[C@@H](CC1CCCCC1)C(=O)N[C@H]1CSSC[C@@H](C(=O)N[C@@H](CCCNC(=N)N)C(N)=O)NC(=O)[C@H](CC2CCCCC2)NC(=O)[C@H](CCCNC(=N)N)NC(=O)[C@H](CCCNC(=N)N)NC(=O)[C@H](CC2CCCCC2)NC(=O)[C@H](CC(C)C)NC(=O)[C@H](CCCNC(=N)N)NC(=O)[C@@H](NC(=O)[C@H](CC2CCCCC2)NC(C)=O)CSSC[C@@H](C(=O)N[C@@H](CCCNC(=N)N)C(N)=O)NC(=O)[C@H](CC2CCCCC2)NC(=O)[C@H](CCCNC(=N)N)NC(=O)[C@H](CCCNC(=N)N)NC(=O)[C@H](CC2CCCCC2)NC(=O)[C@H](CC(C)C)NC(=O)[C@H](CCCNC(=N)N)NC1=O; test system = mouse bilateral renal ischemia-reperfusion; conditions = 1 mg/kg, 23 h, dosed 1 h after injury; scale = reference: vehicle; measurement = serum BUN and creatinine; value = decreased
SMILES = O=C1/C(=C/c2ccc(O)c(O)c2)Oc2c1c(O)cc(O)c2-c1ccc(O)c(O)c1; test system = mouse, CCl4-induced liver injury; conditions = intragastric, 200 or 100 mg/kg, 10 days pretreatment; measurement = serum ALT level; value = decreased
SMILES = C[C@H](NC(=O)CCCCCNC(=S)Nc1ccc2c(c1)C(=O)OC21c2ccc(O)cc2Oc2cc(O)ccc21)C(=O)N[C@@H](C)C(=O)N1CCC[C@H]1C(=O)N[C@@H](CCC(=O)O)C(=O)N1CCC[C@H]1C(=O)N[C@@H](CCC(=O)O)C(=O)N[C@H](C(=O)NCC(=O)N[C@@H](CCC(=O)O)C(=O)O)[C@@H](C)O; test = cytometric bead array; test system = C57BL/6J mouse, hepatic ischaemia-reperfusion, serum; conditions = intravenous, 15 mg/kg; scale = reference: vehicle; measurement = serum inflammatory cytokine levels; value = decreased
SMILES = CN(C)c1cc2ccccc2c(N)n1; test system = ICR mouse, CCl4 liver fibrosis; conditions = intraperitoneal, 1 and 3 mg/kg daily; measurement = serum AST; value = decreased
SMILES = CCCCCCCCN(CCC(=O)Nc1ccccc1)C(=O)c1ccccn1; test system = Lmna G609G/G609G mouse, serum; conditions = intraperitoneal, 40 mg/kg; scale = reference: untreated; measurement = serum glucose level; value = increased

For quick reference, copied from above:
SMILES = O=C(CN1C(C(=O)c2ccccc2)=C(O)c2ccccc2S1(=O)=O)Nc1ccccc1Br; test system = alloxan-induced diabetic mouse, serum; conditions = dose not given, day 21, 504 h, high dose; measurement = serum insulin; value = 38 ± 2 pmol/L
